Measured values collected from several papers.
Lines come from different studies, so protocols differ. Values joined by “and” are separate records of one study, mostly repeats; a detail may differ. ± marks the error that the study gave.

With `Nisin` the nucleoid width was 0.58 µm and 0.59 µm and 0.51 µm (Bacillus subtilis; ATCC 6633; concentration not given).
Under “log2 fold change”, `CTGTTACTCT` is recorded as -1.63 (Salmonella enterica serovar Typhimurium; RNA-seq, measured: sfcA (SL1344_1496); peptide, SL1344; 5 µM, 15 min; relative to: water control).
For `colistin`, the MIC was 0.5 µg/mL (Pseudomonas aeruginosa; PER-producing clinical isolate R16-49).
`milbemycin oxime` gave an OD600 of 1.02 and 0.976 and 0.99 (Saccharomyces cerevisiae; cell growth; Pdr5 deleted, Cdr1 overexpressed; 2^-6.966 µg/mL).
The MIC of `gentamicin sulfate` is reported as 1 µM (Staphylococcus aureus; ATCC 35923, susceptible; 18 h, 37 °C, dark).
With `verteporfin` the relative fluorescence was -48.5% (Drosophila melanogaster; food ingestion, fluorescein feeding; first instar larvae; 40 µg/mL; relative to: solvent-treated).
`GCCATGCTTT (PNA, CPP-conjugated)` — result for “bacterial load reduction”: 97.2% (Salmonella enterica serovar Typhimurium; measured: CFU; peptide, SL1344, Caenorhabditis elegans infection model, worms; 4 × MIC, 24 h; relative to: untreated).
`Polymyxin B` — result for “inhibition zone diameter”: 12 mm (Pseudomonas aeruginosa; ATCC 27853; 125 µg per disc, 24 h, 37 °C).
`human RGPD3`: “log2 fold change” 0.66 (CYB5R4 knockout human cells; PP6 interaction, 3xFLAG-PP6C IP-MS; concentration not given; relative to: CYB5R4 KO over parental).
`CTTTCATGCG (PNA, CPP-conjugated)` gave a log reduction of 1.68 log CFU/mL (Salmonella enterica serovar Typhimurium; peptide, SL1344; 10 µM, 8 h; relative to: untreated).
For `polymyxin A1`, “MIC fold increase” read 2 fold (Pseudomonas aeruginosa; broth microdilution; ATCC 27853; with: Survanta 10% (2.5 mg/mL phospholipid); relative to: without surfactant).
For `CTCATACTGA`, “log2 fold change” read -1.85 (Salmonella enterica serovar Typhimurium; RNA-seq, measured: yicC (SL1344_3701); peptide, SL1344; 5 µM, 15 min; relative to: water control).
For `TCATCCGCTG (PNA, CPP-conjugated)`, “bacterial load reduction” read 88.8% (Salmonella enterica serovar Typhimurium; measured: CFU; peptide, SL1344, Caenorhabditis elegans infection model, worms; 2 × MIC, 24 h; relative to: untreated).
`Polymyxin B` has a membrane depolarisation of 677 a.u. and 567 a.u. and 502 a.u. (Staphylococcus aureus; DiSC3(5) fluorescence; concentration not given, 63 min; higher = more depolarisation).
Under “log2 fold change”, `CTCATAGACT` is recorded as -1.99 (Salmonella enterica serovar Typhimurium; RNA-seq, measured: kup (SL1344_3847); peptide, SL1344; 5 µM, 15 min; relative to: water control).
`colistin` has an MIC of 8 µg/mL (Escherichia coli; broth microdilution; clinical isolate RKI-No_524/16).
With `Ivermectin` the IC50 was 1110 nM (Trypanosoma cruzi; parasite growth, CPRG; Vero, Tulahuen (DTU VI) β-galactosidase).
For `CTCATTGTCT`, “log2 fold change” read -2.48 (Salmonella enterica serovar Typhimurium; RNA-seq, measured: artI (SL1344_0866); peptide, SL1344; 5 µM, 15 min; relative to: water control).
Under “log2 fold change”, `DNA topoisomerase 2-alpha (human)` is recorded as 0.09 (PP6C (human); co-immunoprecipitation, IP-MS; CYB5R4 knockout cells; concentration not given; relative to: CYB5R4 knockout over parental).
`GACATACTCT`: “log2 fold change” -2.54 (Salmonella enterica serovar Typhimurium; RNA-seq, measured: nuoB (SL1344_2296); peptide, SL1344; 5 µM, 15 min; relative to: water control).
Under “MIC fold change”, `Polymyxin B` is recorded as 8 fold (Staphylococcus aureus; concentration not given, with: NaCl 150 mM; relative to: no added salt).
Under “log2 fold change”, `CTCAATCTCT` is recorded as -1.32 (Salmonella enterica serovar Typhimurium; RNA-seq, measured: htrA (SL1344_0210); peptide, SL1344; 5 µM, 15 min; relative to: water control).
With `silver nitrate` the biofilm inhibition was 62 ± 4% (Candida albicans; crystal violet staining; ATCC 10231; 3.5 µg/mL).

Some of these lines once more:
`Polymyxin B` has a membrane depolarisation of 677 a.u. and 567 a.u. and 502 a.u. (Staphylococcus aureus; DiSC3(5) fluorescence; concentration not given, 63 min; higher = more depolarisation).
For `CTCATACTGA`, “log2 fold change” read -1.85 (Salmonella enterica serovar Typhimurium; RNA-seq, measured: yicC (SL1344_3701); peptide, SL1344; 5 µM, 15 min; relative to: water control).
